Published values collected from several papers.
Each line is one published result; not all experiments were run side by side. ± gives the spread as reported.

`Cc1cc(C2CCCCC2)n(OCOP(=O)(O)O)c(=O)c1` gave an inhibition of -0.569% (Replicase polyprotein 1ab, main protease (rep, Severe acute respiratory syndrome coronavirus 2, UniProt P0DTD1); viral replication, Gluc reporter; SARS-CoV-2; 20 µM).
`QMAYRFNGIGVTQNV` has a responding donors of 7% (human CD4 T cells; AIM; peptide).
The serum lipase of `CC[C@H](C)[C@H](NC(=O)[C@H](CC(C)C)NC(=O)[C@H](Cc1c[nH]c2ccccc12)NC(=O)[C@H](CCC(N)=O)NC(=O)[C@@H](NC(=O)[C@H](Cc1ccccc1)NC(=O)[C@H](C)NC(=O)[C@H](CCCCNC(=O)COCCOCCNC(=O)COCCOCCNC(=O)CC[C@H](NC(=O)CCCCCCCCCCCCCCCCCCC(=O)O)C(=O)O)NC(=O)[C@H](CCC(N)=O)NC(=O)[C@H](C)NC(=O)[C@@H](NC(=O)[C@H](CCCCN)NC(=O)[C@H](CC(=O)O)NC(=O)[C@H](CC(C)C)NC(=O)C(C)(C)NC(=O)[C@@H](NC(=O)[C@H](CO)NC(=O)[C@H](Cc1ccc(O)cc1)NC(=O)[C@H](CC(=O)O)NC(=O)[C@H](CO)NC(=O)[C@@H](NC(=O)[C@H](Cc1ccccc1)NC(=O)[C@@H](NC(=O)CNC(=O)[C@H](CCC(=O)O)NC(=O)C(C)(C)NC(=O)[C@@H](N)Cc1ccc(O)cc1)[C@@H](C)O)[C@@H](C)O)[C@@H](C)CC)[C@@H](C)CC)C(C)C)C(=O)N[C@@H](C)C(=O)NCC(=O)NCC(=O)N1CCC[C@H]1C(=O)N[C@@H](CO)C(=O)N[C@@H](CO)C(=O)NCC(=O)N[C@@H](C)C(=O)N1CCC[C@H]1C(=O)N1CCC[C@H]1C(=O)N1CCC[C@H]1C(=O)N[C@@H](CO)C(N)=O` is reported as 21 ± 11 U/L (healthy subjects, single ascending dose; 1.0 mg, baseline).
`Nc1ncnc2c([C@@H]3N[C@H](CO)[C@@H](O)[C@H]3O)c[nH]c12` gave an antigen-positive cells of 49.9% (Zaire ebolavirus; antibody staining; HeLa, Kikwit; 3.1 µM).
With `LYIIKLIFLWLLWPV` the responding donors was 13% (human CD4 T cells; AIM; peptide).

For quick reference, copied from above:
With `LYIIKLIFLWLLWPV` the responding donors was 13% (human CD4 T cells; AIM; peptide).
